Assay results gathered from unrelated publications.
Compare with care: the assays were run in different laboratories. ± marks the error that the study gave. Bridges are numbered along the chain shown (N, C = ends). Where no end group is shown, it is not given here.

| Molecule | assay | system | conditions | how to read | measurement | result |
| --- | --- | --- | --- | --- | --- | --- |
| N=C(N)NCCC[C@@H]1NC(=O)[C@H](CCCCNC(=S)Nc2ccc(CCCCCC(CN3CCN(CC(=O)O)CCN(CC(=O)O)CC3)N(CC(=O)O)CC(=O)O)cc2)NC(=O)[C@@H](Cc2ccc(O)cc2)NC(=O)[C@H](CC(=O)O)NC(=O)CNC1=O (stereo partly drawn) [lutetium-177 labelled] |  | female athymic nu/nu mouse, U87MG xenograft, tumour | iv, 2.22 MBq, 1 h |  | tumour uptake | 1.44 ± 0.61 %ID/g |
| TMPFLFCNVNDVCNFASRNDYSKKK (99mTc-labelled) | TLC | peptide, rat serum | 8 h, 37 °C |  | radiochemical purity | > 90% |
| CC(C)[C@H](NC(=O)[C@@H]1CCCN1C(=O)[C@H](CCCNC(=N)N)NC(=O)[C@H](CS)NC(=O)[C@H](Cc1c[nH]c2ccccc12)NC(=O)[C@H](CCCNC(=N)N)NC(=O)[C@@H](Cc1ccccc1)NC(=O)[C@H](Cc1c[nH]cn1)NC(=O)[C@H](CCC(=O)O)NC(=O)[C@H](CS)NC(=O)[C@H](CS)NC(=O)[C@H](CCCCN)NC(=O)[C@@H]1CC(=O)N[C@@H](CCCNC(=N)N)C(=O)N[C@@H](C)C(=O)N[C@@H](CC(=O)O)C(=O)N[C@H](Cc2ccc(O)cc2)C(=O)N1)C(N)=O [technetium-99m labelled] |  | C57 mice, kidneys | intravenous, 0.037 MBq, 24 h |  | tissue uptake | 33.2 ± 3.39 %ID/g |
| N=C(N)NCCC[C@@H]1NC(=O)[C@H](CSC2CC(=O)N(CCNC(=O)CN3CCN(CC(=O)O)CCN(CC(=O)O)CCN(CC(=O)O)CC3)C2=O)NC(=O)[C@H](CCCCN)NC(=O)[C@@H](Cc2ccc(O)cc2)NC(=O)[C@H](CC(=O)O)NC(=O)CNC1=O (stereo partly drawn) [gallium-68 labelled] |  | ICR mouse, female, blood | intravenous, 5 MBq, 1 to 120 min, two-compartment model |  | distribution rate constant | 0.65 ± 0.11 min⁻¹ |
| insulin lispro |  | human, type 1 diabetes | subcutaneous, FAST PK setting, no carbohydrate interventions |  | tmax | 1.07 h |
| rnpA F107W (Bacillus subtilis) | NMR, item: His3 |  | 25 °C, 20 ± 1 mM, unfolded state, no sulfate |  | pKa | 5.71 |
| pegcetacoplan | population PK model | human, GA or nAMD, serum | intravitreal |  | apparent clearance CL/F | 0.325 L/day |
| insulin | shake-flask | 1-octanol/acidified water | 3 h |  | concentration in aqueous phase | 892 µg/mL |
| TMPFLFCNVNDVCNFASRNDYSYWLHHHHHH (99mTc-labelled) | TLC | peptide, saline | 8 h, 37 °C |  | radiochemical purity | > 90% |
| insulin lispro |  | healthy Japanese men, fasted, plasma | subcutaneous, 0.3 U/kg |  | AUC(0-t) | 12.3 ± 1.45 ng·h/mL |
| CGGQDLKSC (disulfide 1-9 (inferred)) (disulfide) | fluorescence imaging | Balb/c mice, nanoparticles | intratracheal, 24 h | baseline: initial fluorescence | retention in airways | ~68% |
| Insulin human | ELISA | rat, brainstem | intranasal, 20 µg per nostril, 360 min |  | concentration | 45.6 ± 7.2 pg/mg tissue |

Repeated from above:
| Molecule | assay | system | conditions | how to read | measurement | result |
| --- | --- | --- | --- | --- | --- | --- |
| rnpA F107W (Bacillus subtilis) | NMR, item: His3 |  | 25 °C, 20 ± 1 mM, unfolded state, no sulfate |  | pKa | 5.71 |
| insulin lispro |  | healthy Japanese men, fasted, plasma | subcutaneous, 0.3 U/kg |  | AUC(0-t) | 12.3 ± 1.45 ng·h/mL |
